Assay results collected from several papers.
Parts stem from different laboratories: compare values within a part only. Changes are numbered by the printed parent chain.

Set 1
Target: ABI1, truncated, D143A, DHFR fusion (Arabidopsis thaliana)
Technique: DHFR PCA, deep sequencing
Sample: yeast
Setting: methotrexate growth selection, single substitutions
Together with: (+)-ABA 58 µM
Reference: wild-type fitted maximum
Direction: higher = stronger binding
Endpoint: relative binding score
Parent: PYL1, truncated, DHFR fusion (Arabidopsis thaliana); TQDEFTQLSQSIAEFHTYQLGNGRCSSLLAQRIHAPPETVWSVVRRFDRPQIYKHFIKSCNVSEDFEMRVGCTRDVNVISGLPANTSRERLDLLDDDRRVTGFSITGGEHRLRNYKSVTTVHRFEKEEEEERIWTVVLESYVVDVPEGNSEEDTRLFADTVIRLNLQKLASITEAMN
S150E: 49.6%
F56D: -4.22%
R90H: 65.4%
H16C: -18.2%
H16Y: 4.55%
S26Q: 67.9%
E67W: 70%
V142H: 71.2%
S87G: -9.42%
V70C: 67.9%
L166P: 32.1%
Y18S: 71.4%
V76E: -7.27%
P36V: 54.8%
F66Q: 79.7%
N114T: 17.6%

Set 2
Target: Sal-like protein 4, full length isoform B (SALL4, Homo sapiens, UniProt Q9UJQ4-2, residues 1-616)
Technique: universal PBM
Molecule type: double-stranded DNA, one strand shown
Sample: in vitro
Tested at: not given
Setting: 8-mer, flanks averaged, mean of replicates
Direction: higher = stronger binding
Endpoint: E-score
AAATCCAG: 0.114
CGTGTTAA: 0.148
CGCGCTTC: -0.139
CGGTAAAA: 0.14
GTCCAAAC: -0.174
CTTATTCC: 0.155
GCAAGATA: 0.189
GCTAACCC: -0.275
GGCGTCAC: -0.213
ACATGACT: -0.11
CGGCCATC: -0.293
TATTACAA: 0.434
ATTAGGGC: 0.0813
GCCGAAAC: -0.21
AATTAGCC: 0.0132
ACCTCTGG: -0.0835
AACCCGTC: -0.0518
GGCGTCGA: -0.0904
ACCACTGC: -0.25
CCAGGTCA: -0.065
CTTGTGCC: -0.123
CCTCTCAC: 0.0112
CGATCTGC: -0.229
AGTATACC: 0.209
GTTATGCA: 0.165

Set 3
Target: RNA binding protein fox-1 homolog 2, RRM domain, GST-SBP tag (RBFOX2, Homo sapiens, UniProt O43251-10, residues 100-194)
Technique: RNA Bind-n-Seq
Molecule type: RNA
Sample: in vitro
Tested at: 365 nM
Setting: natural RNA segment, single round, ends assumed
Reference: no-protein control
Direction: higher = stronger binding
Endpoint: RBNS enrichment (R)
Constant ends, left off below: GGGAGUUCUACAGUCCGACGAUC … UGGAAUUCUCGGGUGCCAA
UCUCGACCAUUCCGUGUUGGCUGUGUCGCCUGACCUGCGUACCUGUGGAGGAUUCGGAACAAGUCAUGGAGAGACUGUCCGGGUCCGCUCCUUGUGAACUGUGCAGAAGG: 0.506
CAGUGAAAAUCCUCAUUGUUGGAGUGUAAACCAAAUACGAAGCCCUCUUGCAAAGUAGCCUCUUUCAUCCCAUACUCAAAAUACCCAGUUUAGCAAGCAACUGAGAUUUA: 1.92
AUAGAAAGACUAACUAGGGAACAACAAGGCCACAAACAAGCCACCUGGCACAGCAGCCUUCUACUCAUCCACUGCAUGACCCGGAGGCUAGGAGAGCCUGGGCUUCCUCC: 2.3
CUGUUCUCUGUGGCUGUGGACAGUCGUUGCCAGCUGCAUCUGUUGCCCUCACGGGGGAGUGUUCCUGUGUGGCUCCUGCUCCUGCUGUGUGUCGGGCUUAUUAUUGUGAC: 0.398
AGAGAGGCAAGUCAAGGGAAAGAGAACAGUAGACAUGCCUCUCAUCAUUCUCUUGGUGUCUCUUUUUCUUCUUCAGGCCAAUGAGAAGCCGAAAAUUAAACCCCACCUCC: 0.81
AGUAUGAUGAGCAAAAGGCCAGAACUCCAGUGUCCUGUGAGAUUGGCUGACCCGAGCGAGGUAUUAUCUCGGUCUUCAGCCGCUGGAGUUUCAGGGCUGGGCAGCAGGUU: 0.693
AAAGGACUUGGCUUCCCUCGGAGUUUUACUGAUUUAUUUUUUUCUCUUUGCAUUGUGUACAUUAUCAUUGCUACAUCAGUUGUUACAGUGUUGAAAGGCUACCAGUUAUA: 1.27
GAGUCAGCCAAGGACACUGGGGCUGAAUGAAAUGCCCAUUCUUCAGGCAUUUCUACCAUAAUAUUGGAAUUGAACACAUUGGCUAAAUAAAGUUGAAAUUUUACUACCCA: 0.369
AUAAACUAUAAACUUAAGGGCAAGGAGUUUAUUACAAUGUAUCUUUAUUAAAACAAAAGGGUGUAUAGUGUUCACAAACUGUGAAAAUAGUGUAAGAACUGUACAUUGUG: 0.423
CCCUAGGGGCCAGGACAGGACCAGUUUACCUCUUUCCAGAUAUGGUGGUUGGAGGGCUGGUUCAGGUGCCCUGGAGGGAAGGGGAAGCCUGUGGCCCUGAUUUGUUCAGA: 0.471
ACUGGGCUGGCAAUUGUCUGAACACUUGGGUUCAGUUGAAAUAUAUGUAUUUUGGCCAAAAGCCAGCAGCACUUCACAAAAACAAAACACAAACCUAAGCUAACAAAAUG: 0.452
AGGAGGCUCUGCUGGCCGCAGAGAACACAGGGAUGGGAGGGUCCCUAGCCUUCGGGCACCUCCAGGGCCAGAGAGCAGGCUCAGAGCAGCUAGUGUGGAGCUCAGCAUCC: 1.5

Set 4
Target: CCNB1, cyclin fold, Cln2 fusion (human)
Technique: yeast growth competition, sequencing
Sample: yeast
Setting: strong parent motif
Reference: not given
Direction: higher = stronger binding
Endpoint: normalised enrichment score
Parent: BRCA2 docking peptide (human); PSIKRNLLNEFDR; partner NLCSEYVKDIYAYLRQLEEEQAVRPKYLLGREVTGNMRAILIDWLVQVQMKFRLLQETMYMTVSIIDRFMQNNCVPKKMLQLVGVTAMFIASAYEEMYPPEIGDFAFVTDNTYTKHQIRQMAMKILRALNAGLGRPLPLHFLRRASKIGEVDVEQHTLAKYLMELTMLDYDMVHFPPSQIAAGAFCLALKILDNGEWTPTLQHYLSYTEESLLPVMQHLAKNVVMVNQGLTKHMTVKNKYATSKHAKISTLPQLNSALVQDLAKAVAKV
PSFKRNLLNEFDR [I3F]: 0.267
PSIKRMLLNEFDR [N6M]: 0.687
PSIKRNLGNEFDR [L8G]: 0.504
PSIKRNLLNEFQR [D12Q]: 1.81
PSIKRNTLNEFDR [L7T]: 0.914
PSIKQNLLNEFDR [R5Q]: 0.295
PSIKRNLPNEFDR [L8P]: -0.38
PSIKRNLLPEFDR [N9P]: 3.21
PSIKRNLLNFFDR [E10F]: 1.36
PGIKRNLLNEFDR [S2G]: 1.28
PSIKRNLLNEFFR [D12F]: 0.433
FSIKRNLLNEFDR [P1F]: 1.6
PSIKRNLLHEFDR [N9H]: 2.48
PSIKRNLLNEKDR [F11K]: -0.312
PSIKSNLLNEFDR [R5S]: 0.706
ESIKRNLLNEFDR [P1E]: 3.53
PSILRNLLNEFDR [K4L]: -0.0405

Set 5
Target: Ras GTPase-activating protein-binding protein 1, full length (G3BP1, Homo sapiens, UniProt Q13283)
Sequence of UniProt Q13283 (whole entry, looked up): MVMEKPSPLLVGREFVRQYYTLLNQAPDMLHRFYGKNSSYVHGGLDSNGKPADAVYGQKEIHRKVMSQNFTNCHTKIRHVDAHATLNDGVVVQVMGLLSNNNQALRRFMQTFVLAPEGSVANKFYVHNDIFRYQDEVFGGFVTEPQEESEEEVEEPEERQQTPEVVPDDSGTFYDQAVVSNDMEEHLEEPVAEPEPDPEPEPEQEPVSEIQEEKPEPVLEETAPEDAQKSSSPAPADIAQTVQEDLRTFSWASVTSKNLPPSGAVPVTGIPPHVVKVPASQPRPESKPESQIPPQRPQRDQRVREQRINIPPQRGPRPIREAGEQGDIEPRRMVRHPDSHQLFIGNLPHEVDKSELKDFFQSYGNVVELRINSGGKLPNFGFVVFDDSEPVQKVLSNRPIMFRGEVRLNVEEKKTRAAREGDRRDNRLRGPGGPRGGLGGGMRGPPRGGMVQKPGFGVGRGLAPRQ
Technique: RNA Bind-n-Seq
Molecule type: RNA
Sample: in vitro
Tested at: 200 nM
Setting: whole 134-nt RNA, ends assumed
Together with: 150 mM LiCl
Reference: input library
Direction: higher = stronger binding
Endpoint: log2 enrichment
All molecules: 7-deaza-guanosine replaces G
Constant ends, left off below: GGGAGUUCUACAGUCCGACGAUC … UGGAAUUCUCGGGUGUCAAGG
UCAAGUCCUGUGCUACACAUCGUAUGUACCGAAUCGGGGCCGGGGCCGGGCCGGGAAAGUAUUAUGUUACGCCGUUCGGAUCUGCACUUC: 0.586
CUGUGCUACACAUCGUAUGUACCGAAUCGGGUUUUUUUGGGUUUUUUUGGUUUUUUUGGGGAAAGUAUUAUGUUACGCCGUUCGGAUCUG: 1.08
CAAGUCCUGUGCUACACAUCGUAUGUACCGAAUCGGAAAGGAAAAAAAGGUUUGGAAAGUAUUAUGUUACGCCGUUCGGAUCUGCACUUC: -2.1
GUCCUGUGCUACACAUCGUAUGUACCGAAUCGGGGAAAAAGGAAAAAGGGAAAAAGGGGAAAGUAUUAUGUUACGCCGUUCGGAUCUGCA: -0.0114
GCAGGAAGUAAAAACAAAUGGAAAUGCUUCGGAUAGUGGCAGGGGUGGGGGUUGCUAAGGAAAGGGUGGGAUGGGAGUGGGUAAUGAGUU: 0.492
GUCCUGUGCUACACAUCGUAUGUACCGAAUCGGGGAGGGGUUUUUUUGGGGUUUGGGGAAAGUAUUAUGUUACGCCGUUCGGAUCUGCAC: 0.286
GCAGGAAAUAAAAACAAAUGGAAAUGCUUCGGAUAGUGGCAGGGGUGGGGGUUGCUAAGGAAAGGGUGGGAUGGGAGUGGGUAAAGAGUU: -0.0243
UCCUCCCUGGCUUCAGCCAGUCCCUGACGCUGAGCACUGGCUUCCGAGUCAUCAAGAAGAAGCUGUACAGCUCGGAACAGCUGCUCAUUG: -0.617
CAAGUCCUGUGCUACACAUCGUAUGUACCGAAUCGGAAAGGGGAAAGGGAAAGGGAAAGUAUUAUGUUACGCCGUUCGGAUCUGCACUUC: -0.425
ACCAUGCAAGUGGGCAUCUUUGGGAAGUGGGGCAAGGGGGGGAUAGGGAGGGGGGUAACACUUUGGGAACAGGUGGUCCCAGGUCGUUUC: 0.269
UCCUGUGCUACACAUCGUAUGUACCGAAUCGGGGAGGGGAAAAAAAGGGGUUUUUGGGGAAAGUAUUAUGUUACGCCGUUCGGAUCUGCA: 0.943

A few entries again (set 2):
CTTATTCC: 0.155
GCAAGATA: 0.189
GCTAACCC: -0.275
GGCGTCAC: -0.213
ACATGACT: -0.11
CGGCCATC: -0.293
TATTACAA: 0.434
ATTAGGGC: 0.0813
GCCGAAAC: -0.21
